Results gathered from unrelated publications.
Numbered parts are unrelated; each lists some results of a single study.

Block 1
Target: Centromere-binding protein 1, full length, His-tagged (CBF1, Saccharomyces cerevisiae, UniProt P17106, residues 1-351)
Sequence of UniProt P17106 (whole entry, looked up): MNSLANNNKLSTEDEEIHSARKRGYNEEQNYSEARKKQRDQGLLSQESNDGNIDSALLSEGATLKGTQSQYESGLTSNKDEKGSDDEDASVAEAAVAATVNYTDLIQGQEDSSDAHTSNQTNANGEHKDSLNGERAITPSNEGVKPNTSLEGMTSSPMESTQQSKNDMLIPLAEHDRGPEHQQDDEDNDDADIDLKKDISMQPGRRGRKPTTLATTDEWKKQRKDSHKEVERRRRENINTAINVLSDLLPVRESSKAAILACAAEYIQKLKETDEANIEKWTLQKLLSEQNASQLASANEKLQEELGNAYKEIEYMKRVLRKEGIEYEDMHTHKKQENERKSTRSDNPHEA
Method: competition protein-binding microarray
Molecule type: double-stranded DNA, one strand shown
Sample: in vitro
Concentration: 2 µM
Notes: whole 60-bp probe, lowest competitor level
Added: Pho4 competitor, 0.05 µM
Reading: higher = stronger binding
`TAATGTCAATATTCACACGTCGTTATAAGCAGCTAAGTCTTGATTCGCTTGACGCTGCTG` has a fluorescence intensity of 91 a.u.
The fluorescence intensity of `GCCAAGCAGCGTCCGCACGTTGGAACTTTTTCGCCGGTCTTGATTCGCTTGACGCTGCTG` is reported as 70 a.u.
`CATACCCAACCTTGGTAAGTGGGTGAAGATATTTGTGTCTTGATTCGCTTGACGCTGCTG` has a fluorescence intensity of 64.7 a.u.
With `CTTTCCCGATCTTTTCACGTGGAATTAGCACATTTGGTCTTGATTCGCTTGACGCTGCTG` the fluorescence intensity was 607 a.u.
`AAAGCGGTAATTTGTCACGTAACTTCACATATCTATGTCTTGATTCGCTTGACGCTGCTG` has a fluorescence intensity of 149 a.u.
`AAAGCGGTAATTTGTCACACGACTTCACATATCTATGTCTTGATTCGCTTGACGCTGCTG` gave a fluorescence intensity of 145 a.u.
The fluorescence intensity of `GTCTTGTCTCATTACCACGTGTTTTTCCCCACTTCAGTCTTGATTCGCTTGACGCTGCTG` is reported as 1400 a.u.
`TGCGCAACAACTTGGACGGTGGGTGTATGTCTAGAAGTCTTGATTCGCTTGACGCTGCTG` has a fluorescence intensity of 54.1 a.u.
`AAAATGGAAAAGTTACACGTGGAAGATACAACAACCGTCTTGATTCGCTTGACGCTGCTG` gave a fluorescence intensity of 642 a.u.
The fluorescence intensity of `CTAACGAAGGTTTGGCGCGTGGGTGACAAGCCAAGTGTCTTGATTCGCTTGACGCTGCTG` is reported as 72.2 a.u.
With `TAACATAGAATTCTTCACGTGGTCGAAATATGTATAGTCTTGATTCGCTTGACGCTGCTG` the fluorescence intensity was 2720 a.u.
`ATAAATCGTTGGAGTGACCTGGCGTTGGGGTAATTCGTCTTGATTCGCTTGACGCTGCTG` has a fluorescence intensity of 85 a.u.
With `CGTCCTAGTGATTGTGAGGTGGGTGCCATGAGGAAGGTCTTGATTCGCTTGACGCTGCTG` the fluorescence intensity was 80.5 a.u.
`CATACCCAACCTTGTATCGTGGGTGAAGATATTTGTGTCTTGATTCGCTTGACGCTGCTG` has a fluorescence intensity of 77.4 a.u.
For `ACTTGAGTCAAAAGGCATGTGCGCCTCTTGTTATCTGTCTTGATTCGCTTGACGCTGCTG`, the fluorescence intensity was 101 a.u.
The fluorescence intensity of `CTTCTGTAAATTTGCCCCGTGGGTGGACGCGCCCCGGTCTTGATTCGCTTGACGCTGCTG` is reported as 100 a.u.
`CGGGGTTAAGTTTGCTACGTGGGTGGCTTGCAGCAGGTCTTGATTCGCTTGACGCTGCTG` has a fluorescence intensity of 71.7 a.u.
The fluorescence intensity of `CTAACGAAGGTTTGTCACCAAACTTACAAGCCAAGTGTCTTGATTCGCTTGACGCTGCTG` is reported as 76.2 a.u.
`TGCGCAACAACTTGTCACCGCACTTTATGTCTAGAAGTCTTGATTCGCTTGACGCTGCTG` has a fluorescence intensity of 75.1 a.u.
With `ATATTAGCTGAAAACCACATGGACGCAGCATTCAGTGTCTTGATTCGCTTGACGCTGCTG` the fluorescence intensity was 80.6 a.u.
For `TAAATGGTCTCTTAATGCGTGCCGAATTTTCGTAATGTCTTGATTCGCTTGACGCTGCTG`, the fluorescence intensity was 84.9 a.u.
For `GTCCCCAGCGTACAAACCGTGACGGTTACCGAAAGCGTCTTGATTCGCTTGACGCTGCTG`, the fluorescence intensity was 66.5 a.u.
The fluorescence intensity of `CATACCCAACCTTGCCTGGTGGGTGAAGATATTTGTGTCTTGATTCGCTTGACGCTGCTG` is reported as 64.6 a.u.
For `TCTGGGTGTAACATTCAGATGCGGGCGTCATTTATTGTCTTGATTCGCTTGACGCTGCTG`, the fluorescence intensity was 67.7 a.u.
For `AAATTACTAAGTTGCGGGGTGGGTGACGCCGTATGAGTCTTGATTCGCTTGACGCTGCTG`, the fluorescence intensity was 79.7 a.u.

Block 2
Target: Histone acetyltransferase KAT6A, winged helix 1, GST fusion (KAT6A, Homo sapiens, UniProt Q92794, residues 1-85)
Method: protein binding microarray
Molecule type: double-stranded DNA, one strand shown
Sample: in vitro
Concentration: not given
Notes: 8-mer, flanks averaged, mean of 2 arrays, mostly near background
Relative to: not given
Reading: higher = stronger binding
Construct (chain): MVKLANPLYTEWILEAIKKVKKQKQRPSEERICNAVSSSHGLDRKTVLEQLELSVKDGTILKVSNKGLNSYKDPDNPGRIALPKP
`CCACCCAA` has an E-score of -0.232.
The E-score of `TAGCAATA` is reported as -0.173.
For `CTTTGCTA`, the E-score was -0.173.
`AGATCTAC` has an E-score of -0.0445.
`GTTCCAAA` gave an E-score of -0.24.
With `GCCAATCA` the E-score was -0.21.
`CGCGAACC` gave an E-score of 0.278.
`CAACCATC` gave an E-score of -0.01.
For `TTCGGAAA`, the E-score was 0.0852.
For `CCCAAGCC`, the E-score was 0.108.
`GTAACATA` has an E-score of 0.0483.
With `GCCGTAGA` the E-score was 0.314.
`CCGGGAAA` gave an E-score of 0.223.
For `CGTGAGGC`, the E-score was 0.116.
The E-score of `AATAAGAA` is reported as -0.131.
With `AACTGCTC` the E-score was 0.0148.
`CACCACAG` has an E-score of -0.321.
For `CATTCTGG`, the E-score was -0.212.
`CTGTCATA` gave an E-score of -0.0632.
The E-score of `CTATCGAC` is reported as 0.00918.
`ACTGCGAA` has an E-score of 0.0789.
For `AATAGCGG`, the E-score was 0.251.
`CTCACTAC` has an E-score of -0.19.
With `GATTATTA` the E-score was -0.0334.
The E-score of `CAGCTATC` is reported as -0.226.

Block 3
Target: RING finger protein unkempt homolog, zinc fingers 1-6, GST-SBP tag (UNK, Homo sapiens, UniProt Q9C0B0, residues 30-357)
Sequence of UniProt Q9C0B0 (30-357, looked up): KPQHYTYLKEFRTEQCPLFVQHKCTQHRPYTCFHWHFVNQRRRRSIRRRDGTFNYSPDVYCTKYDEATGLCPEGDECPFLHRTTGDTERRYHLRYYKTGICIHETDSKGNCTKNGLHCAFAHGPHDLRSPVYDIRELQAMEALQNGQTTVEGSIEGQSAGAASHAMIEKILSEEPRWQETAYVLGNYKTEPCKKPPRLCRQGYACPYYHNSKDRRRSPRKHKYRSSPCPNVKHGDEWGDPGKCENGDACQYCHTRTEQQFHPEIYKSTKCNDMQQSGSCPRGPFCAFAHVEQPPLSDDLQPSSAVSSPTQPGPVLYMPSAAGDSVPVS
Method: RNA Bind-n-Seq
Molecule type: RNA
Sample: in vitro
Concentration: not given
Notes: RNA with constant flanks, human and mouse sites, ends assumed
Relative to: input RNA pool
Reading: higher = stronger binding
For `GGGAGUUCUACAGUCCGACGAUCCAGGGCCAAAACUGGAACCAAGGAUUUAAUAACUAUUAUGAUCAAGGAUAUGGAAAUUACAAUAGUGCCUAUGGUGGUGAUCAAAACUAUAGUGGCUAUGGCGGAUAUGAUUAUACUGGGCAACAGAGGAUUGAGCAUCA`, the bound/input enrichment was 1.07 ratio.
`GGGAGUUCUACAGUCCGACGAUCUUAAUGCCAAUUGUAUAUACACCGACGGUUGGUCUUGCCUGCUCCCAGUAUGGACACAUCUUUAGAAGACCUAAGGGAUUAUUUAUUUCGAUCUCAGACAGAGGUCAUGUUAGAUCAAUUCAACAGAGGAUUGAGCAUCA` has a bound/input enrichment of 2.9 ratio.
The bound/input enrichment of `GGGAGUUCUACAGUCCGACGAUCAGCCAUUGGGGAGGCAGAUGCGGGUGUGGAGGUGUGGGCUGAAGGUAGUGACUGUUUGAUUUUAAAAAGUGUGACUGUCAGUUGUAUCUGUUGCUUUUCUCAAUGAUUCAGGGAUACAAACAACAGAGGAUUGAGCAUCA` is reported as 1.53 ratio.
The bound/input enrichment of `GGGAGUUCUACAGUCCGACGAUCGAACAGCUCACGAGAGGGUCCGUCGUAACCUGUUGAGUAACUAUGGAAGACUAUAUCAAAAUAGAGAAAAUUGGAGAAGGUACUUACGGUGUGGUGUAUAAGGGUAGACACAGAGUCACUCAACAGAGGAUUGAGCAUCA` is reported as 0.757 ratio.
For `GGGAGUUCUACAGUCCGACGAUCACUAAAAGCAAGUGGGGAAUGAUUCCCCGGGGGCCAGCAUCUCAAUUUUAUAUUACCCCCAGUACAUCCCUAAGUCCUCGACAGAGUGGACCACAGUGGAAAGGCCCCAAACCAGCUUUUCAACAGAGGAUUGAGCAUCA`, the bound/input enrichment was 0.226 ratio.
`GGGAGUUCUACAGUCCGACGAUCGUCAUUGAUGUCCUUCAUCCUGGGAAGGCAACAGUACCAAAGACAGAAAUUCGGGAAAAGCUGGCCAAAAUGUACAAAACCACACCAGAUGUCAUCUUUGUAUUUGGAUUCAGAACCCACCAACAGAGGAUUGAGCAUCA` gave a bound/input enrichment of 0.109 ratio.
`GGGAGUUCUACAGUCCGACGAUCAGUGGUGUUGUACAUGAAAUUGGACAUGGGAUAGCAGCUAUUAGGGAACAAGUUCGAUUUAAUGGCUUUGGGAUUUUUCUCUUCAUUAUUUAUCCUGGAGCAUUUGUUGAUCUGUUCACCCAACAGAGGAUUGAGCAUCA` gave a bound/input enrichment of 0.319 ratio.
For `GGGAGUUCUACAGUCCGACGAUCGCAGAUGCAGUAGGCGUAACUGUUGUGCUAAUUACUUGUACCUAUCGAGGACAAGAAUUUAUUAGAGUUGGCUAUUAUGUAAAUAAUGAAUAUACUGAGACAGAAUUAAGGGAAAAUCCACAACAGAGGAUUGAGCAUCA`, the bound/input enrichment was 1.82 ratio.

Block 4
Target: RNA binding protein fox-1 homolog 2, RRM domain, GST-SBP tag (RBFOX2, Homo sapiens, UniProt O43251-10, residues 100-194)
Method: RNA Bind-n-Seq
Molecule type: RNA
Sample: in vitro
Concentration: 365 nM
Notes: natural RNA segment, single round, ends assumed
Relative to: no-protein control
Reading: higher = stronger binding
Construct (chain): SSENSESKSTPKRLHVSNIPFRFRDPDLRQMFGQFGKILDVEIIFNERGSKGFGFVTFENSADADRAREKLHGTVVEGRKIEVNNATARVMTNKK
`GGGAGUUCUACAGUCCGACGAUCCACUGUGCGUGCAGACACACUGACACACUCCGCCACGAGUGCUCCAGAGCCCACGAGGCUUGCAGAUCGGGGGCAUAGGAAUUUGGAAUCCAAGAGCUAUAAUUUUUAAAUGGAAUUCUCGGGUGCCAA`: “RBNS enrichment (R)” 1.46.
`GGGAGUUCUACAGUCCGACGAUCGCCUUAUCUUGUGGCCUUCCAAAAUAGGUUGUUUGCCUGUGUGGAGACAACAGUGCGGGAGUCCUGAGUGCUGGCUGUGCAGCCAGUUAAGUGUUCAUGUUCUAGUGAGCUGGAAUUCUCGGGUGCCAA`: “RBNS enrichment (R)” 0.434.
For `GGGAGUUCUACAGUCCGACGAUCGUCCCCAAGUCUGCUAAUUAAGGGCCCACUUCUACUUUCUAGUCGCACUUCUGAAAUUCCAUAUUUUGUUUGCUGGGGCCUGAGUUUGCUGGCUUUUAAAAUAUAGAUCAUGGAAUUCUCGGGUGCCAA`, “RBNS enrichment (R)” read 1.18.
Under “RBNS enrichment (R)”, `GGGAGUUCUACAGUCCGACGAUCUAUUUUACUGGGAAGACGUGUAACUCUUUGGGUUAUUACUGUCUUUACUUCUAAAGAAGUUAGCUUGAACUGAGGAGUAAAAGUGUGUACAUAUAUAAUAUACCCUUACAUGGAAUUCUCGGGUGCCAA` is recorded as 0.319.
`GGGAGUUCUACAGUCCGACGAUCGUAUUGAAUUUAAGAAGACAGACUAGCACAAAACACAGAAUUCGUGUUAACCAAAGGAGGCAUUGAUUUCAGUUUUAAGGCUACUCAGUGUUGUGUGUCCAGGGAAAUUCUGGAAUUCUCGGGUGCCAA` — result for “RBNS enrichment (R)”: 0.386.
`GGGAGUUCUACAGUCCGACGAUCCAGUGACCACUGAGGCCCCAUCGCUCCUCCGCUGGAAGCCGCCACGCCAGCCAGCCAGGCCGCAGCAGCAUCUGCCUCGAGGCUGCAGCUCCAGCCUGUAACCAGAUGUGUGGAAUUCUCGGGUGCCAA`: “RBNS enrichment (R)” 0.508.
`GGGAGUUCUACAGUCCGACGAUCUUUUAUUAUCAAAAUUAUAUUUCUGAUAAAAUAUUUUAAUUUUGAGGUAAUCCUUACAAAAUGAAGGUUUUCAUGCAACUAGAAAUAUAUUUUGAAAUAUAUUUGAUAUAUGGAAUUCUCGGGUGCCAA` — result for “RBNS enrichment (R)”: 1.1.
`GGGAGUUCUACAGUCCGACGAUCAGUCUGGCUGAACCCAUUUCCACCUGCAAAGUCUUGUGUUGUGUCUGCAGGCCACACCAGUGGCCACAGGGGCCAUUUUGUCUUGUUGAUGCUGAAACCAUGCUGGACUGUGGAAUUCUCGGGUGCCAA` — result for “RBNS enrichment (R)”: 0.556.
For `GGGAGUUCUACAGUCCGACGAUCUAUGCAUCAACUCAUUGGGCUCUUGGCUGCUCACAAGGCAAAUUUGACUUGGAAAGACUUUCAUCUCCUUGGAACCAAGACUUCCUGAGUCCCCCUCACCCUGGCCCUGUUGGAAUUCUCGGGUGCCAA`, “RBNS enrichment (R)” read 0.948.

Excerpt of the above (block 2):
With `GCCGTAGA` the E-score was 0.314.
With `AACTGCTC` the E-score was 0.0148.
`CCACCCAA` has an E-score of -0.232.
`CCGGGAAA` gave an E-score of 0.223.
For `CCCAAGCC`, the E-score was 0.108.
`CTGTCATA` gave an E-score of -0.0632.
The E-score of `CTATCGAC` is reported as 0.00918.
`GTAACATA` has an E-score of 0.0483.
`ACTGCGAA` has an E-score of 0.0789.
`CAACCATC` gave an E-score of -0.01.
`CTCACTAC` has an E-score of -0.19.
